Measured values of several laboratories.
Parts stem from different laboratories: compare values within a part only. Positions count from the first letter of the parent shown.

Block 1
Target: CCND3, cyclin fold, Cln2 fusion (human)
Method: yeast growth competition, sequencing
Matrix: yeast
Setting: weak parent motif
Relative to: not given
Direction: higher = stronger binding
Endpoint: normalised enrichment score
Starting sequence: E2F1 docking peptide (human); PPVKRRLDFETDH; partner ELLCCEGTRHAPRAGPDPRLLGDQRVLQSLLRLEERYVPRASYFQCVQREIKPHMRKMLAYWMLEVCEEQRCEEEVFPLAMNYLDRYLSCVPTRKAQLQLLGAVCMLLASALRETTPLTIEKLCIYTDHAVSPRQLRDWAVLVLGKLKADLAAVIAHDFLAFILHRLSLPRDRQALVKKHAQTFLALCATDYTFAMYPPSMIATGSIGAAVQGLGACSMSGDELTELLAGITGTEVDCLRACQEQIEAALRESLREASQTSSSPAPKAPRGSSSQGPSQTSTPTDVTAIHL
D12K: 0.102
P2T: -0.0215
F9P: -0.00614
K4L: -0.267
T11V: 0.328
R5V: 0.31
T11R: -0.0371
L7H: 0.0525
T11F: 0.534
D8I: 0.212
R6Y: -0.313
L7P: 0.266
P2N: 0.381
R5H: -0.117
R5Y: 0.133

Block 2
Target: RNA binding protein fox-1 homolog 2, RRM domain, GST-SBP tag (RBFOX2, Homo sapiens, UniProt O43251-10, residues 100-194)
Method: RNA Bind-n-Seq
Form: RNA
Matrix: in vitro
Tested at: 365 nM
Setting: natural RNA segment, single round, ends assumed
Relative to: no-protein control
Direction: higher = stronger binding
Endpoint: RBNS enrichment (R)
Construct (chain): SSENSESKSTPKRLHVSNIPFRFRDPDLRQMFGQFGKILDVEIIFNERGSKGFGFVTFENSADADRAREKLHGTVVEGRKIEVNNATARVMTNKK
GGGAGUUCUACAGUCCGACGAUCAAAGACCCAACUCCGGAGGCCUACCUCCUGUGUACCCUCAGAGAGGGCAAUGUCACCCUCCUGGUAGGUAGUCCUAGACCCCUCCUGCCUCUUGCUCUCCAAUGGGGAGAUGGAAUUCUCGGGUGCCAA: 0.349
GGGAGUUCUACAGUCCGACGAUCGGCGGCUCCCCAGGGAUGCGCCGAGGGAGAUGGGAAACGGGGCGGAUGGCGCCCAGCCCAGCCCUAACUGCCAGCUGGCUGGGGUUGCGCCCCACUGCGCUGCUGACCUUUGGAAUUCUCGGGUGCCAA: 0.345
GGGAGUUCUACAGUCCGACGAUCGCCCAUGCGCACACCAGACCGCUGUCUUAGUACUGUCACUGUUGUAAAGGCACAUGUUGGAACACAUCCAGUCCUGCUGACCUGUAGAUAAUUAUUUUUCUCUAAAUGAAUGGAAUUCUCGGGUGCCAA: 0.274
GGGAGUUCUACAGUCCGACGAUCCAUCACUAGACUCAGCAACCCUUCUCACCUUAACUGCCACCUUCCCUACACUCUCAGUUUACAGAGGCCACUGGGCCUCUGGCUGCAGAAUACAAAGUCCCGGGCUGUUAUGGAAUUCUCGGGUGCCAA: 0.599
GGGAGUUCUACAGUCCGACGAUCUAACUGAUCCUUUCUUCCACUUUGCUGUUGAUUUGUUCACAAAUUAUGUCUGAAUGAGAAAUCUUCUGUAAGCAGAAGUUAUUUAAUAAUUCCCAGCACCACGAAAUUGUUGGAAUUCUCGGGUGCCAA: 0.305
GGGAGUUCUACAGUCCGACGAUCAAAUGCCAUGUACUUCUCUUGGGAAAAUAGACCCCCUUGCCUAGAGUAAGUUGUUAACUGAGGGCUUUAAACCUGGAGGCUCUUCCUGAAAGUAUGUUCAUGAAUACCCCUGGAAUUCUCGGGUGCCAA: 1.15
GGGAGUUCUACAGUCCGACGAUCCCAAGGUGCUAUGGCGCAAAGGGCCCUUCUGCAGAAACCCAGUUUUCCUACCUGGGCUGGUUUCUUUUCUAUAGGCUGUCUUGUCUUUCUUAUGCUAACCACUAUUUUAAUGGAAUUCUCGGGUGCCAA: 0.487
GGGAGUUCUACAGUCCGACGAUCCAAAUAACAUGAAACGUGCUCUGUCGACUCAAUAUUAAAGCCAGGGUGAAGAGUUGCAAACCCCUCUGUCCCUGCAGUACUGCCUGAGUGUGUGGUGAUUCUGGGCUCUCUGGAAUUCUCGGGUGCCAA: 0.362
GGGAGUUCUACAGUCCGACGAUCUUAUUUUGAAAUCAUGUAAAAUAAGAUAUUAGACUGUUUUUUGAAUAAAAUAUUUUUAUUGAUUGAACCUUUGACCCUCUAUCUUAUUACAUUUAGAGGCCUGGCAUCUUUGGAAUUCUCGGGUGCCAA: 1.2
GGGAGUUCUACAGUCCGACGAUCAUCCUAGUAUGAUUGGUUAUAUCAAGAAUUGACAAGUGCAGAUAAAGACCUUUCCCAUAGGAGUUCAAGAACUGGACUGUUGUGAAGAAGUCAGCUCUUAUCUCAGGUUGUGGAAUUCUCGGGUGCCAA: 0.617
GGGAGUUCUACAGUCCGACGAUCCCCUUAAGACUGUUUUUAAAUGAAAAUGAGAACAUUAAAGAGGAUACUAUGUAUACUUGAGAAUCUUUAAGCAGCAAAUUAGUCAUUUGCAUGAAGCUCCAGGAUUACAGUGGAAUUCUCGGGUGCCAA: 0.366
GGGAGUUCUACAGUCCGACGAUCACAUGUAAUGAAAUUGUAGAUAAAGUGUAGUGCAUUGAAACAAAUGAACAAAAAGUAGAUACUUUUACUAUACAAGGGUGCUGGUGCAGAAAAAAAUAUAUAUAUUUUUGUGGAAUUCUCGGGUGCCAA: 0.525

Block 3
Target: Sal-like protein 4, full length isoform A (SALL4, Homo sapiens, UniProt Q9UJQ4, residues 1-1053)
UniProt Q9UJQ4, sequence (whole entry, looked up): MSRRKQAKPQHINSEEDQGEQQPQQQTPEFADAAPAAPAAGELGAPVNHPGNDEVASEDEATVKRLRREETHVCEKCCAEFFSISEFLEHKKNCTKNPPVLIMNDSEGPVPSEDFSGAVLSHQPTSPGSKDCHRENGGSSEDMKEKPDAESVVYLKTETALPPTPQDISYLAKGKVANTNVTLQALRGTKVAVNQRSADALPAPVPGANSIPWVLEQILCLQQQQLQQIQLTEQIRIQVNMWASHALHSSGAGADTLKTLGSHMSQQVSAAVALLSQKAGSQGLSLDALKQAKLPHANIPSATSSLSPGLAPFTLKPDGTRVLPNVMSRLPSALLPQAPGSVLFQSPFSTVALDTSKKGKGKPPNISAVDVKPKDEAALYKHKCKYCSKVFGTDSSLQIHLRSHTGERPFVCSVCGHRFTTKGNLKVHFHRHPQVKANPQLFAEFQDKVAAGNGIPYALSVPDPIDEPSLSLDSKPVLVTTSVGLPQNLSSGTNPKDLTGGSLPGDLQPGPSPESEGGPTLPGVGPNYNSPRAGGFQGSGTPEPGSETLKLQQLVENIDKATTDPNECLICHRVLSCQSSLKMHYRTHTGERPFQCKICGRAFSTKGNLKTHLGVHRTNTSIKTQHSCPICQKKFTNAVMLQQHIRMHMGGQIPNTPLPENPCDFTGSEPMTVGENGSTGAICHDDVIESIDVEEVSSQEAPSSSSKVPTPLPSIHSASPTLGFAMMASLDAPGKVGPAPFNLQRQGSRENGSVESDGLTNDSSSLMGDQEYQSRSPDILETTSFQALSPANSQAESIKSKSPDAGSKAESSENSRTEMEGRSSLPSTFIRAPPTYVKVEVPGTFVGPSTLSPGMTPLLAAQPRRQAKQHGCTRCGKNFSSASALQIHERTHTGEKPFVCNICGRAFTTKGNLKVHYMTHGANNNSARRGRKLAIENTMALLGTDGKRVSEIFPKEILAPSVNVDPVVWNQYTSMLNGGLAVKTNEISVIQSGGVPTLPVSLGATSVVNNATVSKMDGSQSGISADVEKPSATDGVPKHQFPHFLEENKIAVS
Method: universal PBM
Form: double-stranded DNA, one strand shown
Matrix: in vitro
Tested at: 600 nM
Setting: 8-mer, flanks averaged, mean of replicates
Direction: higher = stronger binding
Endpoint: E-score
AATCGTTA: 0.227
GACGCTCA: -0.188
GTGCGGCA: -0.257
CGAGCCCA: -0.255
CAGTGCTC: -0.0767
ACAACGCG: -0.1
ACTAAATA: 0.367
AAGTATCG: 0.101
GAGCTGTA: -0.0302
ATGCCTAC: -0.048
AACCGTTC: -0.115
GGCAAGAA: 0.0694
TAGATCCA: 0.11
CTGACTCC: -0.152
TCGCTAGA: -0.0288
ACTGGATA: 0.158
AGGCGTAG: -0.147

Other studies, line by line
PhoQ, residues 284 288 289 292 302 303 NLCILV
fold induction (PhoP, residues 12 14 15 18 19 AQALL (Escherichia coli, UniProt P23836); Sort-seq, item: YFP reporter; E. coli; PhoQ-PhoP variant library, with: 10 µM Mg2+; relative to: high Mg2+ state, higher = stronger signaling): 13.4
